Assay results collected from several papers.
Each line is one published result; not all experiments were run side by side. Values joined by “and” are separate records of one study, mostly repeats; a detail may differ.
Target: Serine/threonine-protein kinase 33 (STK33, Homo sapiens, UniProt Q9BYT3)

SMILES = C=CC(=O)N1CCCC(n2c(=O)c3ncccc3n(Cc3ccc(Oc4ccccc4)cc3)c2=O)C1 (stereo not drawn); test = cell-free assay, competition with immobilised ligand; setting = 1 µM; endpoint = remaining binding; value = 84%
SMILES = CNC1C[S+]2CC[S+]3CC[S+](C1)[Ru-4]321([N]=C=S)[n]2c3ccc(OC)cc3c3c4c(c5cc(F)c[n+]1c5c32)C(=O)NC4=O (stereo not drawn); test = KinomeScan; setting = 0.1 µM; how to read = baseline: untreated; endpoint = remaining binding; value = 74%
SMILES = COc1ccc(NC(=O)Nc2ccc3c(c2)C(=O)N(C(C)CO)CC(C)C(CN(C)Cc2ccc4c(c2)OCO4)O3)cc1 (stereo not drawn); test = kinase activity, KinaseProfiler; setting = 0.03 µM, species human; how to read = baseline: control; endpoint = remaining activity; value = 96%
SMILES = COc1cc(Nc2nccc(-c3cnn4nc(OC)ccc34)n2)cc(C(F)(F)F)c1; test = binding, competition with immobilised ligand; setting = 1 µM; endpoint = remaining binding; value = 100%
SMILES = N[C@H]1CC[C@H](Nc2nccc(-c3cccnc3Oc3ccc(NC(=O)NC4CC4)c4ccccc34)n2)CC1; test = kinobead competition pulldown; system = HEK293/HCT116 lysate mixture; setting = 10 µM, 1 h, 4 °C; how to read = lower = stronger competition; endpoint = log2 LFQ intensity; value = 23.2 and 23.1 and 23.3
SMILES = COc1c(Cl)cccc1Nc1c(-c2ccncc2C#C[C@@]2(C)CCCN2C(=O)/C=C/CN(C)C)[nH]c2c1C(=O)NCC2; test = binding, competition with immobilised ligand; setting = 3 µM; endpoint = remaining binding; value = 100%
SMILES = CC(C)=CC1OC(C)(C)C2C=C3C(=O)C(Cl)=CC(O)C3C3C(O)C4OC4C(=O)C132 (stereo not drawn); test = cell-free assay, competition with immobilised ligand; setting = 10 µM; endpoint = remaining binding; value = 100%
SMILES = COCC12C(=O)NC3C4(C(OC)CC1O)C1CC5(O)C(OC)C(O)C(OC(C)=O)(C1C5OC(=O)c1ccccc1)C3(O)C(OC)C24 (stereo not drawn); test = kinase activity, inhibitor, ProQinase kinase profiling; setting = 25 µM; how to read = baseline: control; endpoint = remaining activity; value = 98% and 94%
SMILES = COc1c(OCCCN2CCOCC2)ccc2c1N=C(NC(=O)c1cnc(N)nc1)N1CCN=C21; test = enzyme activity, inhibitor; setting = 1 µM; endpoint = remaining activity; value = 105%
SMILES = Cc1ccc(-c2c(/C=C(\C#N)C(=O)NC(C)C)n(CCCO)c3ncnc(N)c23)cc1; test = cell-free assay, competition with immobilised ligand; setting = 1 µM; endpoint = remaining binding; value = 87%
SMILES = Cc1cnc2nc1Nc1cccc(c1)COC/C=C/COCc1cc(ccc1OCCN1CCOCC1)N2; test = binding, competition with immobilised ligand; setting = 0.1 µM; endpoint = remaining binding; value = 86%
SMILES = C=CC(=O)N1Cc2nc(-c3cc(-c4cc(Cl)cnc4Cl)c(F)cc3F)n(-c3ccncn3)c2C1; test = cell-free assay, inhibitor; setting = 1 µM; endpoint = inhibition; value = -1.3%
SMILES = Nc1ncc(-c2cc(-c3cnn(CC(F)(F)F)c3)ncc2F)nc1C(=O)NC1CNCC(F)C1 (stereo not drawn); test = enzyme activity; setting = 1 µM; how to read = baseline: DMSO control; endpoint = remaining activity; value = 88.5%
SMILES = Cc1ccc(C(=O)Nc2ccc(CN3CCN(C)CC3)c(C(F)(F)F)c2)cc1C#Cc1cnc2cccnn12; test = target engagement, NanoBRET; system = human cells; endpoint = Hill slope; value = -19.5
SMILES = NC(=O)C[C@H]1CCc2sc3ncnc(O[C@H]4CC[C@H](N5CCOCC5)CC4)c3c21; test = enzyme activity, inhibitor; setting = 10 µM; endpoint = inhibition; value = 15%
